Experimental data collected from several papers.
Numbered parts are unrelated; each lists some results of a single study.

Block 1
Target: Interferon regulatory factor 7, full length, phosphomimetic (IRF7, Homo sapiens, UniProt Q92985, residues 1-503, S101K/S471D/S472D/S475D/S476D/S477D/S483D/S484D/S487D)
Chain of UniProt Q92985 (whole entry, unmodified, looked up): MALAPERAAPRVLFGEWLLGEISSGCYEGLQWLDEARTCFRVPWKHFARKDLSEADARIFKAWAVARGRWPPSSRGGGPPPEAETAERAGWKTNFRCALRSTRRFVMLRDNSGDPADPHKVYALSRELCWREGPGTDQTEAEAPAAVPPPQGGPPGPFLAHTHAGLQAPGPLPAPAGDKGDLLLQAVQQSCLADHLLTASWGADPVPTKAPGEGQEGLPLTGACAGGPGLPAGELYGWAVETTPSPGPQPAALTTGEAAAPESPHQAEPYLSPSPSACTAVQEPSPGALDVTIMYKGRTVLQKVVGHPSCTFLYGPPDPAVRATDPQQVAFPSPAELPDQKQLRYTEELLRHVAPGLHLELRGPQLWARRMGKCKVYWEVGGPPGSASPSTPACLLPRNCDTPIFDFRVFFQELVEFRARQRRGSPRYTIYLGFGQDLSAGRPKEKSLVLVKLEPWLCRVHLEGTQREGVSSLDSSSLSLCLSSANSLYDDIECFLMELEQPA
Method: protein-binding microarray
Form: double-stranded DNA, one strand shown
Matrix: in vitro
Tested at: 250 nM
Notes: 60-bp whole probe
With: salmon DNA 0.4 mg/ml
Reference: random background probes
Direction: higher = stronger binding
Measurement: log fluorescence
All sequences stand within: GCCTAGCAC … GTCTTGATTCGCTTGACGCTGCTG
TTAGATATAGGGTATCGATTAGTGCTA: 0.41 z-score
TATTGTCTCCCCCATCTTGTTGTGCTA: 0.182 z-score
GACCGACTGCTTATCCTGACGTGCTAG: -0.413 z-score
GACGGTTTCGGTGCCGGGACGTGCTAG: 3.2 z-score
TCATTTTTAGATTTTTTACTGTGCTAG: 0.629 z-score
GCCGATTCCAGTTTCGAGACGTGCTAG: 4.82 z-score
TCAACACTAATTTTCATACTGTGCTAG: 0.285 z-score
TCATATATATAATATATAACTGTGCTA: 0.622 z-score
ATAGGTCTCCTTTTCCTTTAGTGCTAG: 1.61 z-score
AAAGTTTTTCATTTTTTTTCGTGCTAG: 0.957 z-score
GACGGTATCCTACGGCTGACGTGCTAG: -0.511 z-score
TTAGGACTGCTAATGCTTTAGTGCTAG: -0.481 z-score
TGAGTGAAAGGCCCATACATGTGCTAG: -0.435 z-score
GACGGTATCCTTATCCTCACGTGCTAG: 0.347 z-score
GAAGGTCTCCTTTTCCTGACGTGCTAG: 1.42 z-score
TTAGATATCTGGTTTCGATTAGTGCTA: 8.57 z-score
TTAGGATTCGGTCTCGGTTAGTGCTAG: 3.27 z-score
CACGGACTGCTTATCCTGACGTGCTAG: -0.687 z-score
TTAGATATCATACTGGATTAGTGCTAG: -0.199 z-score
CTATATTTGCTTCAGGTTTAGTGCTAG: 1.1 z-score
TTAGGTATCGGGTCTGGGTTAGTGCTA: 0.88 z-score
TGAGATATCAGTCTCGATTAGTGCTAG: 1.3 z-score
TGTGAAACCTTCAGGCACGTGTGCTAG: -0.49 z-score
GACGGACTGCTACTACTGACGTGCTAG: -0.593 z-score
TTAGGACTGGATCTCGGTTAGTGCTAG: 0.275 z-score

Block 2
Target: RING finger protein unkempt homolog, zinc fingers 1-6, GST-SBP tag (UNK, Homo sapiens, UniProt Q9C0B0, residues 30-357)
Chain of UniProt Q9C0B0 (30-357, looked up): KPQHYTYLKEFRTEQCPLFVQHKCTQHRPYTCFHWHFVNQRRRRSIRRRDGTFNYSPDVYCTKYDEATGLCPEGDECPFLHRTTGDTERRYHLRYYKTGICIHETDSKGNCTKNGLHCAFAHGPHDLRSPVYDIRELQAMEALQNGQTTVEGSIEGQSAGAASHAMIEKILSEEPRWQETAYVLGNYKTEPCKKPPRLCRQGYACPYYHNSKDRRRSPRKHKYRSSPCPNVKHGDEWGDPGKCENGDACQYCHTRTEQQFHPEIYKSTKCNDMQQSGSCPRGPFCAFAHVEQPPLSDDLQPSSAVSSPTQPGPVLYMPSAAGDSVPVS
Method: RNA Bind-n-Seq
Form: RNA
Matrix: in vitro
Tested at: not given
Notes: RNA with constant flanks, human-mouse chimeric sites, ends assumed
Reference: input RNA pool
Direction: higher = stronger binding
Measurement: bound/input enrichment
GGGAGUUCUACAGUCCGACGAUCAGUGUGCAGGAAUUCAUGACCUUCACGAGUCAACUGAUUGUGGAACGCUCGGGGAAAGGCAGCAGAGCUUCUGUCAAAGAACAAGAGUAUCUUUGCCACGUCUACGUCCGGAGCGACAGUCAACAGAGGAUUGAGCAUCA: 0.0825 ratio
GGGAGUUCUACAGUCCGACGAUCUAAAUUAGCCAGCACCAUUUCUGUUUCUCCCUGGGCUGCGGAAAGCCAGAAGAUUUUAUCUAGCUUAUACAAGGCUGCUGGAGCUUGCUCUUUUUUUCCACGAGGGUGUUUUUGGCUGCACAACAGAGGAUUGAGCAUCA: 0.819 ratio
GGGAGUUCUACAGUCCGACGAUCACUCAGAGAUCCACCUCCCAAAGUGCUGGGAGUAAAGGUGUGGCCACCACACCUAACUUGAUGGAUAUAUAUUUUUUCUCUUUUAUGUCUUCCUGUUCGUCCAGGGAGCAAGAACGGGUUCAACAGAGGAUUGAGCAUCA: 0.311 ratio
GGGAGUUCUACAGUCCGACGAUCUAUCCAACUUUCUUGCCACGUUUUGAAUUCCAAGACAUUAUUCCUCCAGAUGACUUCCUAACGAGUGAUGAAGAGCAAGAUUUGGUUUUAUUUGGAACUAUGAGAGGACAAGUUGUUGGACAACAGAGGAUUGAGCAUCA: 0.151 ratio
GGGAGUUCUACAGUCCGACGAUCUGUAACUCUUAUCUGUAAGGUUCCCCCCCCCUACUGUCAAAAAAUAUGCAUGUAUAGUAAUUAGGACUUCAUUCCUCCAUGUUUUCUUCCCUUAUCUUACUGUCAUUGUCCUAAAACCUUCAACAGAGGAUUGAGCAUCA: 2.2 ratio
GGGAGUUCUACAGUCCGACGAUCGACUUUGGGACUGGUCCUCGCAACGCAGCCUUCUAUAGCCCUCAUGGACAUAUAUUAGUAUUAGCUGGAUUUGGAAAUCUGAGGGGACAAAUGGAAGUAUGGGAUGUUAAAAACUACAAGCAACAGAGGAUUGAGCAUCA: 0.535 ratio
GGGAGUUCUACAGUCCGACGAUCGAGUCGAGCAAACUUGAAACAAUUCGUUAUCUUGCAGCCUCAGUGUUUUUACUUGCCGCGAUAGCAUUGGGGUUUUAUAGGUUCUGGAAGGAGAACUGACGAUGAUGUCCUGCUGUGUGCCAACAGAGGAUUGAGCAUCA: 0.17 ratio
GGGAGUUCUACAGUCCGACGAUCCUGGCCUGGCCCUCCCCAGGGGCCUCCUUCUCUGCAUUCACUGCUUCUGCAUCAGAUACUUUCAGCUCCAAGUCCUGACUGGGUGGGGCACCCAUUUCAGGCAGAAGGUUUUGGUACCCUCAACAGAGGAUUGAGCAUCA: 0.377 ratio
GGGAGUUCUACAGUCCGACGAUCGACCCACAGUGGUCUGAGGAGCAACUCAUUGCUGCAAAAUUUUGCUUUGCUGGCCUUGUUAUAGGGCAGACUGAAGUGGACAUCAUGAGUCAUGCCACACAAGCUAUUUUUGAAAUUCUGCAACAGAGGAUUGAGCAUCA: 0.169 ratio
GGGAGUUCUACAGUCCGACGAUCCGGAGCCCUCCUCUCCCCCAGGCCCGAGAUAUAACCCACCAGUGCCUUUUGUCUUCCCGUUAGCUUUGUCAAUCACGCCUGUCCUCUCACGCCCACACCAAGUGCCCAAAGUGGGGAGGGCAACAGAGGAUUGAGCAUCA: 20.5 ratio
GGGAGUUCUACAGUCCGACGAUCCUGUGCGGGUGACUGUCCUGGAGUGGCUGGAGUUCCCGCCGGAGCGCGGCCAGACUAAUUUUAGAAAAUGCCAAGUAGGAAGUUUGUCGAUGGUGAAGUGGUCAGAGGCCGAUGGCCUGGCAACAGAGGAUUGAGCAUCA: 1.2 ratio

Block 3
Target: Prothrombin, mature alpha-thrombin (F2, Homo sapiens, UniProt P00734)
Method: aptamer microarray, sandwich
Form: DNA with 2'F-ANA
Matrix: in vitro
Tested at: 200 nM
Notes: whole 15-mer aptamer, many near background
With: Cy3 exosite-II aptamer, 400 nM
Direction: higher = stronger binding
Measurement: mean fluorescence intensity
Oligonucleotide: GGTTGGTGTGGTTGG
2'F-ANA at 1 2 3 4 6 7 9 10 12 15: 71.9 a.u.
2'F-ANA at 1 3 5 6 9 11 12 15: 107 a.u.
2'F-ANA at 2 3 5 6 7 8 9 10 13 14 15: 52 a.u.
2'F-ANA at 5 8 11 14: 44.3 a.u.
2'F-ANA at 2 4 5 7 9 11 12 14 15: 61.3 a.u.
2'F-ANA at 2 3 4 5 6 7 8 10 11 13 15: 51.4 a.u.
2'F-ANA at 1 4 6 7 8 9 10 12 14: 49.4 a.u.
2'F-ANA at 1 10 11: 53.1 a.u.
2'F-ANA at 3 6 8 9 11 12 13 14 15: 482 a.u.
2'F-ANA at 1 6 9 12 13 14 15: 63.8 a.u.
2'F-ANA at 2 3 6 8 11 13 14: 317 a.u.
2'F-ANA at 2 3 4 8 9 12 13 15: 615 a.u.
2'F-ANA at 2 3 4 6 7 10 15: 240 a.u.
2'F-ANA at 4 5 10 12 13: 51.7 a.u.
2'F-ANA at 1 2 4 7 10 15: 51.8 a.u.
2'F-ANA at 2 4 5 6 10 11 13 15: 46.6 a.u.
2'F-ANA at 3 6 10 11 13 14 15: 381 a.u.
2'F-ANA at 3 4 6 8 15: 642 a.u.
2'F-ANA at 1 2 3 5 7 8 9 10 12 13 14: 49.5 a.u.
2'F-ANA at 3 4 6 7 13 14: 287 a.u.
2'F-ANA at 1 3 6 8 12 13 14 15: 115 a.u.
2'F-ANA at 2 3 4 7 8 9 11 12 13 15: 560 a.u.
2'F-ANA at 1 2 3 4 5 6 7 9 10 11 14: 49.4 a.u.
2'F-ANA at 3 4 14 15: 363 a.u.
2'F-ANA at 1 2 5 7 9 11 15: 50.5 a.u.

Block 4
Target: RNA binding protein fox-1 homolog 2, RRM domain, GST-SBP tag (RBFOX2, Homo sapiens, UniProt O43251-10, residues 100-194)
Method: RNA Bind-n-Seq
Form: RNA
Matrix: in vitro
Tested at: 365 nM
Notes: natural RNA segment, single round, ends assumed
Reference: no-protein control
Direction: higher = stronger binding
Measurement: RBNS enrichment (R)
Target sequence (chain): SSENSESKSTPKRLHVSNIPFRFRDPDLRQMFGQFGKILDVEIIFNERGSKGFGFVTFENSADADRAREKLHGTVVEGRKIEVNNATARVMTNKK
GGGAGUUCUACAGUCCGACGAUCAGCUUCACAGUCGCCUCAUCUCUAAGCACUCCUUCCCUGCCUUCCCUGUGGUCCCACUGCGCAGGGCACAGCCACCUCAGCCACUCCCAGGCUGGACCACACGCUAACCUUGGAAUUCUCGGGUGCCAA: 0.452
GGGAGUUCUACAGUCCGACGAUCUUUAACUGGGGACCAUCUGUGAAAUUAAUUUUCCAUCCAGACAGCUGCUGUGAGCAAAUGAACAUAAAUGCUCGCUGGAAAUUUACUAACCAGUUUUUAUAUUGACCUGCUGGAAUUCUCGGGUGCCAA: 0.373
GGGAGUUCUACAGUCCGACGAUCGUCCACUAGAGGCCACUGUCUUCAAAGCUUCUCUCACCCUAGCCAAAGGUCCUAAGAGGAGACAGCUGUGAAGUUGGGCGUGCUCUGUGGUACCAGCUGUGACUUUUCUAUGGAAUUCUCGGGUGCCAA: 0.234
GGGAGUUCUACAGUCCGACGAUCGGGCAAAAACCAAUUCGCUUCUCCCCACGUUCUAAAUGCUGGGGCAUGGCUGUCAGGAGGGCUUCCUGGGAGGUGUCUCUGGGGGUGGGGUGAGGUUGGGGCGAUGGCCUUGGAAUUCUCGGGUGCCAA: 0.414
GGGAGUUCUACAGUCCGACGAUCCCUGUCUCAGAAAAAAAGAAAAUUCAAGGCCAGUUAAGACAAAAUGCUAUGACUUUGAAAUUCACAGAAAGAAAUAACAGUUUAGAUUAGGUCUUCAGGUAUUCAGGAUAUGGAAUUCUCGGGUGCCAA: 0.327
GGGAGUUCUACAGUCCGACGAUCAACAACAAUCCAGGUCACAUACCUGCCUUCCAGUCAGAAGAGCAAACGCCCUAAGCACUUCCUGGAACUGAAGAGCUUUAAGGACAACUAUAACACACUGGAGAGCACUCUGGAAUUCUCGGGUGCCAA: 0.343
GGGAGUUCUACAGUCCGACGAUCCUGGGUUCAAUCACAAUACUGAAAAGUAGGCCAAAAAACAUUCUGAAAAUGAAAUAUUUGGGUUUUUUUUUAUAACCUUUAGUGACUAAAUAAAGACAAAUCUAAGAGACUGGAAUUCUCGGGUGCCAA: 0.387
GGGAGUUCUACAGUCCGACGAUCUAUCCUUUCUCAUGGAAGCGCGUACCCGUUCGUGGAGGAAACGGAACGGCAGCCCAGCCGUGGGACGGACGUGGACGUUUACUGCAUUCCUGUUUGCCGUGUAAAUGUUAUGGAAUUCUCGGGUGCCAA: 1.51
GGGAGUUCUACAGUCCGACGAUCUGCUGUCCUUCUUUGCAUUUCACAAUAUCAAAGAAACCACCACCCUUCUUCCUAACAGCAUUUUAUGCCUUUUAUUCCACAUUAAAUGGGAAUUGUGCCUACUUAGGAGUUGGAAUUCUCGGGUGCCAA: 0.425
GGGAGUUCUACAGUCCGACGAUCUCCUCCUCAUCAGCUAUUUUACCCAUCUCAGAACGUCCUGUGUCUCCAUGUAGGAGAGUGGCUCUCUCAGAUCUCUCAGGGCGUCUGGUUAUAGGGAAACAAGUGGAGCAUGGAAUUCUCGGGUGCCAA: 0.642
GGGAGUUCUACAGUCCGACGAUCGGAGCACACCUCUCAGACCAGUCAGGAACACUGGGGAGGUGACAGCAGGUCCCCAGGGGCCUGCAGGGAAUCUUUCAGCUGCACGGAUUGGGAUUUCCCUCCAAACCAAAUGGAAUUCUCGGGUGCCAA: 0.417
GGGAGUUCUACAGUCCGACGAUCACAGCAGAUUCUUGCAGUAUCAAGUAUACGCCUGUGGCAGAAUAAGUAUCUGUAAAUACAUGUUUAAAGAUGGAUUUUGUUUAAAAAAUCUAAAGGAACAAGUGUGUCGUUGGAAUUCUCGGGUGCCAA: 0.435

A few entries again (block 3):
2'F-ANA at 2 3 4 8 9 12 13 15: 615 a.u.
2'F-ANA at 3 6 8 9 11 12 13 14 15: 482 a.u.
2'F-ANA at 3 6 10 11 13 14 15: 381 a.u.
2'F-ANA at 1 10 11: 53.1 a.u.
2'F-ANA at 2 3 4 6 7 10 15: 240 a.u.
2'F-ANA at 2 3 4 7 8 9 11 12 13 15: 560 a.u.
2'F-ANA at 1 2 3 4 6 7 9 10 12 15: 71.9 a.u.
2'F-ANA at 3 4 6 7 13 14: 287 a.u.
2'F-ANA at 3 4 14 15: 363 a.u.
2'F-ANA at 5 8 11 14: 44.3 a.u.
2'F-ANA at 1 2 4 7 10 15: 51.8 a.u.
2'F-ANA at 1 4 6 7 8 9 10 12 14: 49.4 a.u.
